# Measurements collected from several papers.
# Numbered parts are unrelated; each lists some results of a single study. Positions count from the first letter of the parent shown.

# Study 1
# Target: ABI1, truncated, D143A, DHFR fusion (Arabidopsis thaliana)
# Technique: DHFR PCA, deep sequencing
# Matrix: yeast
# Notes: methotrexate growth selection, single substitutions
# Added: (+)-ABA 1.4 µM
# Baseline: wild-type fitted maximum
# Reading: higher = stronger binding
# Starting sequence: PYL1, truncated, DHFR fusion (Arabidopsis thaliana); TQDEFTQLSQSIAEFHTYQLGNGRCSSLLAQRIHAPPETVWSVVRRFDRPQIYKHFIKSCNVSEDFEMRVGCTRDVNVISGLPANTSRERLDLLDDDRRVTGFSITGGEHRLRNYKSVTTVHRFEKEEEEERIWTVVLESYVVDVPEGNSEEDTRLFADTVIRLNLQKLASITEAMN; partner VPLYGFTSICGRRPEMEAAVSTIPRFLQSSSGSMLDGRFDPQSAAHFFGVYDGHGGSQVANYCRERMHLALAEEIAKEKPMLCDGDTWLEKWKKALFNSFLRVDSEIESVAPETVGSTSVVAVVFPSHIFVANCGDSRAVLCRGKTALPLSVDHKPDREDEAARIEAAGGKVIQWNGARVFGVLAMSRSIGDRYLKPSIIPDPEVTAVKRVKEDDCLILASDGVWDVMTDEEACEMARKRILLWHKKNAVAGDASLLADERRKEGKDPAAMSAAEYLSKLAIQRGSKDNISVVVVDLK
Substitution,relative binding score [%]
A158Y,-12.7
T119F,-6.65
V76F,-6.62
V76M,6.6
A170Y,-25.1
S11Q,68.8
E151T,39.6

# Study 2
# Target: CCNE1, cyclin fold, Cln2 fusion (human)
# Technique: yeast growth competition, sequencing
# Matrix: yeast
# Notes: strong parent motif
# Baseline: not given
# Reading: higher = stronger binding
# Starting sequence: BRCA2 docking peptide (human); PSIKRNLLNEFDR; partner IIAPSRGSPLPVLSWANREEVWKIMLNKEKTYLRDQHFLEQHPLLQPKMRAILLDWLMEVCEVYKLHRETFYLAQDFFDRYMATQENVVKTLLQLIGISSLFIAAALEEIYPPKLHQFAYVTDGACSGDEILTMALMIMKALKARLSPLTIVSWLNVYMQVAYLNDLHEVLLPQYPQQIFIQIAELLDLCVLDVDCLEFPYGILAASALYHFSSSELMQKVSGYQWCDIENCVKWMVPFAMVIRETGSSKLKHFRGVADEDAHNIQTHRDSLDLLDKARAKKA
Substitution,normalised enrichment score
PSIKRPLLNEFDR [N6P],1.12
PMIKRNLLNEFDR [S2M],1.74
PSIKLNLLNEFDR [R5L],-0.392
PSIYRNLLNEFDR [K4Y],0.0706
PSIVRNLLNEFDR [K4V],2.27
PSIKTNLLNEFDR [R5T],0.449
PSIKGNLLNEFDR [R5G],-0.673
PSEKRNLLNEFDR [I3E],0.756

# Study 3
# Target: NFE2, bZIP domain (human)
# Technique: DHFR protein complementation
# Matrix: yeast
# Notes: single substitutions, most at no-binding floor
# Baseline: wild-type JUN-FOS pair
# Reading: higher = stronger binding
# Starting sequence: JUN, bZIP domain (human); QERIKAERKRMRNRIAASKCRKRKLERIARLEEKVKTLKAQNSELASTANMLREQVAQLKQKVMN; partner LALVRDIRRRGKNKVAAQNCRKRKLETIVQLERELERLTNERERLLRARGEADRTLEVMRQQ
Substitution,binding fitness [natural log]
Q55Y,-1.52
V35L,-1.57
E44H,-1.38
R53M,-1.52
L31C,-1.34
R30C,-1.4

# Further values, each from its own experiment
Substance,target,assay,test system,setting,scale,endpoint,result
"PhoQ, residues 284 288 289 292 302 303 SMMNNA","PhoP, residues 12 14 15 18 19 VQGLL (Escherichia coli, UniProt P23836)","Sort-seq, measured: YFP reporter",E. coli,"PhoQ-PhoP variant library, added: 10 µM Mg2+","baseline: high Mg2+ state, higher = stronger signaling",fold induction,21.5

# Repeated from above (study 2):
Substitution,normalised enrichment score
PSIYRNLLNEFDR [K4Y],0.0706
PSIKGNLLNEFDR [R5G],-0.673
PSIKTNLLNEFDR [R5T],0.449
PSIKLNLLNEFDR [R5L],-0.392
